Results pooled from the literature.
A part holds a random share of what one study measured.
Chain of UniProt P16591 (whole entry, looked up): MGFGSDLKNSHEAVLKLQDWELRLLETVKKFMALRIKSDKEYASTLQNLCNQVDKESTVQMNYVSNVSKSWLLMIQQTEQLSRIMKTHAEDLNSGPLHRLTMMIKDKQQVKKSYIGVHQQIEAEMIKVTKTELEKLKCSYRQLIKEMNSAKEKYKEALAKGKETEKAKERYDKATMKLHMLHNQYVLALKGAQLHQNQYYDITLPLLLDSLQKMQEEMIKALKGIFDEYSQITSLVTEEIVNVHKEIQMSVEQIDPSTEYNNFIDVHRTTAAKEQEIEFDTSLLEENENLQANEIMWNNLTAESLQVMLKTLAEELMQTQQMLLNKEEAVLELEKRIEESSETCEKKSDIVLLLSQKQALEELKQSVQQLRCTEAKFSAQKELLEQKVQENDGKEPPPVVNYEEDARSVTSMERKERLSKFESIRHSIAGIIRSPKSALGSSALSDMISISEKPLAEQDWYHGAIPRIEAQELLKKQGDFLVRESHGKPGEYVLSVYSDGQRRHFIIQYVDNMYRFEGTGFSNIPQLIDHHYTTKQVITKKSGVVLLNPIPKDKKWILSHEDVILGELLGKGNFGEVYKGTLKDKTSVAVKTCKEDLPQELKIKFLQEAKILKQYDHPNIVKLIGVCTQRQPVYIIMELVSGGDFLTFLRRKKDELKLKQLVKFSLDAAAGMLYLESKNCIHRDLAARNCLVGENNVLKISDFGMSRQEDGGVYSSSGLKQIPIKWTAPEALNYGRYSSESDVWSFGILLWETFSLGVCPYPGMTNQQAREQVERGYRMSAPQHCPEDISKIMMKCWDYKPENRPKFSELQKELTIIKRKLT
Chain of UniProt O94921 (whole entry, looked up): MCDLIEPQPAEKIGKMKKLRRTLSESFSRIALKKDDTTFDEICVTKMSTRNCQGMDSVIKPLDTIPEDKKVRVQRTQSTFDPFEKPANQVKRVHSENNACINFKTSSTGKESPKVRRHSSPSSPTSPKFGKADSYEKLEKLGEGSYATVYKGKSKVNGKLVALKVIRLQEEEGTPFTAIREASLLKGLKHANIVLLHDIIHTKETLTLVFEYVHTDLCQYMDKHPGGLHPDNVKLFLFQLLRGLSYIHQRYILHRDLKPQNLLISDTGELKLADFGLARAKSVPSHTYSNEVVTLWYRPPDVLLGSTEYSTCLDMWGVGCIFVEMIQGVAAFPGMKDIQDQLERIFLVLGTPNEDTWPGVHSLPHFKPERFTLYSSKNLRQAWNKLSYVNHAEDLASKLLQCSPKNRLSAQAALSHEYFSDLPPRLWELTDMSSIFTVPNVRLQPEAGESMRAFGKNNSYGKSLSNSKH
Chain of UniProt Q9UPZ9 (whole entry, looked up): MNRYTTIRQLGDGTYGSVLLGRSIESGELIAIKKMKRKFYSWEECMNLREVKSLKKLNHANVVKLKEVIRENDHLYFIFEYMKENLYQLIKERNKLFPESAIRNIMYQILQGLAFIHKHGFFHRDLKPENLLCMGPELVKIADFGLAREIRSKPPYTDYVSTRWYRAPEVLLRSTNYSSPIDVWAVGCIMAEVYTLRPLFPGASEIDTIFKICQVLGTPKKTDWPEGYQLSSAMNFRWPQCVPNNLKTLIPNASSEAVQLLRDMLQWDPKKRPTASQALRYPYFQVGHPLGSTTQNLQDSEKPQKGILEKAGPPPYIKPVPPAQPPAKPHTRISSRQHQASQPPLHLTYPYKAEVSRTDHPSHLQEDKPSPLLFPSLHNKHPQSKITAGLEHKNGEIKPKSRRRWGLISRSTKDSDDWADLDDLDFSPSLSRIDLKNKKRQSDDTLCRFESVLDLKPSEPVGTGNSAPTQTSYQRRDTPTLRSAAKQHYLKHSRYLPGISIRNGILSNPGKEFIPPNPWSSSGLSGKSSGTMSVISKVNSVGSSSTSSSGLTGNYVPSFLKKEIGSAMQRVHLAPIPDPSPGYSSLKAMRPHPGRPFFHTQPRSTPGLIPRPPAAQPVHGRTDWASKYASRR
Chain of UniProt P29323 (whole entry, looked up): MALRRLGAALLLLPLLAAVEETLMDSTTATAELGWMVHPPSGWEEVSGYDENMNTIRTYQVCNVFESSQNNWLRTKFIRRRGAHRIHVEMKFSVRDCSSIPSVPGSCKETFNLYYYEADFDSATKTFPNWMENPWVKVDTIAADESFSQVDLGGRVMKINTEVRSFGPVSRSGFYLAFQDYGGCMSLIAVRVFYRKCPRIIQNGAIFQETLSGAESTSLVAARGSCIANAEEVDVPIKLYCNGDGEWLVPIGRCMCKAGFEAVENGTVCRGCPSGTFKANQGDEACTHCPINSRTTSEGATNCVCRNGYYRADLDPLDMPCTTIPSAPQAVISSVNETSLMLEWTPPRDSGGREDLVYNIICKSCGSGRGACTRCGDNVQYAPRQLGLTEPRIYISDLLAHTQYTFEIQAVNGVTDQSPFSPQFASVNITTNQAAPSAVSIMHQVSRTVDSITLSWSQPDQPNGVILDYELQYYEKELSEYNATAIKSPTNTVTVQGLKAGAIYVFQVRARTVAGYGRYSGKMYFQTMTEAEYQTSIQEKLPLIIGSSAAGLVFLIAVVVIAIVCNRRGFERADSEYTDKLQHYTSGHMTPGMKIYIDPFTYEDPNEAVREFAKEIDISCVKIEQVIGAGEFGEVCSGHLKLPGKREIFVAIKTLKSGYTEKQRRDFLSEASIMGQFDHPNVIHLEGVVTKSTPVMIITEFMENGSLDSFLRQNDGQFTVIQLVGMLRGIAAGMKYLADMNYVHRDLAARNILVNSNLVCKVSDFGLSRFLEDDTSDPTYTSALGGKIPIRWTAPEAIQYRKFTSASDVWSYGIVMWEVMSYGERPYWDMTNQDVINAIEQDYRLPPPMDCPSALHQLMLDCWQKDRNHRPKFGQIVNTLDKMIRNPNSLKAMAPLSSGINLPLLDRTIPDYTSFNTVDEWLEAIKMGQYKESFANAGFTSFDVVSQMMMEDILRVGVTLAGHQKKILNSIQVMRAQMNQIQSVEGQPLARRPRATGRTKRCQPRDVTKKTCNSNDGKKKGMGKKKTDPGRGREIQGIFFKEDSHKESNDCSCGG

Block 1
Organism: Sarcocystis neurona
Observed: parasite activity
Concentration: 10 µM
Time: 96 h
`c1ccc2[nH]c(-c3cscn3)nc2c1`: activity class “inactive”.
`NC(=O)N1c2ccccc2CC(=O)c2ccccc21`: activity class “inactive”.
`COC(=O)C[C@](O)(CCCC(C)(C)O)C(=O)O[C@@H]1C(OC)=C[C@]23CCCN2CCc2cc4c(cc2[C@H]13)OCO4` — result for activity class: “inactive”.
For `O=C1CCc2ccc(OCCCCN3CCN(c4cccc(Cl)c4Cl)CC3)cc2N1`, activity class read “inactive”.

Block 2
Cell line: HaCaT
Concentration: 100 µM
Time: 36 h
`C=CC(N)CCC(=O)O` (stereo not shown) has a viability of 92.3%.
`c1ccc2[nH]c(-c3cscn3)nc2c1` gave a viability of 54%.
`Oc1cc(O)c(Cl)cn1` has a viability of 97.5%.
`Cc1ccc(N(CC2=NCCN2)c2cccc(O)c2)cc1` gave a viability of 73.5%.

Block 3
Target: Tyrosine-protein kinase Fgr (FGR, Homo sapiens, UniProt P09769)
Chain of UniProt P09769 (whole entry, looked up): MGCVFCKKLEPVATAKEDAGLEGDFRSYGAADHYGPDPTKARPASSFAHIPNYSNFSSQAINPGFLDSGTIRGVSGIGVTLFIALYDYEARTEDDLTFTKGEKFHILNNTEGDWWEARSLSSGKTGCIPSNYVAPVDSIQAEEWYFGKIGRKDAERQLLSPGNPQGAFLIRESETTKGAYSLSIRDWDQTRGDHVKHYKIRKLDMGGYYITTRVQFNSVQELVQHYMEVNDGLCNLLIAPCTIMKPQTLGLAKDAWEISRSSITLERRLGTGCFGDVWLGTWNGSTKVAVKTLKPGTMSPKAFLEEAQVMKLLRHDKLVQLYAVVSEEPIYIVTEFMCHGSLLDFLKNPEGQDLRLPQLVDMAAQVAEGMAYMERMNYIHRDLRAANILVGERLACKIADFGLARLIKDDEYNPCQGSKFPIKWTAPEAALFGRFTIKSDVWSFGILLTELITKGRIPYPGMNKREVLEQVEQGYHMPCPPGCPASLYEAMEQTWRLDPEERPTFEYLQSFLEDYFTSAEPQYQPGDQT
Observed: enzyme activity
Mode: inhibitor
Concentration: 0.5 µM
Relative to: control
For `Oc1cccc(-c2nc(N3CCOCC3)c3oc4ncccc4c3n2)c1`, the remaining activity was 94.8%.
With `O=C1Cc2c([nH]c3ccc(Br)cc23)-c2ccccc2N1` the remaining activity was 74.4%.
For `O=C1NC(=O)c2c1c1c3ccccc3[nH]c1n1cncc21`, the remaining activity was 94.8%.
`COc1cccc(-c2cc(=O)c3ccccc3o2)c1N` gave a remaining activity of 94.8%.
`CN1CCN(c2ccc3nc(-c4c(N)c5c(F)cccc5[nH]c4=O)[nH]c3c2)CC1` gave a remaining activity of 6.34%.
With `O=Nc1c(-c2c(O)[nH]c3cc(Br)ccc23)[nH]c2ccccc12` the remaining activity was 2.99%.
With `CN(C)S(=O)(=O)c1ccc2c(c1)/C(=C/c1cc3c([nH]1)CCCC3)C(=O)N2` the remaining activity was 18.2%.
`Cc1ccc(S(=O)(=O)/C=C/C#N)cc1` gave a remaining activity of 100%.
`O=C1Nc2ccc(Br)cc2/C1=C/c1cc2c([nH]1)CCCC2` has a remaining activity of 67.7%.
For `Cc1cc(Nc2cc(N3CCN(C)CC3)nc(Sc3ccc(NC(=O)C4CC4)cc3)n2)[nH]n1`, the remaining activity was 58.2%.
`O=c1cc(N2CCOCC2)oc2c(-c3ccccc3)cccc12` has a remaining activity of 97.5%.

Block 4
SMILES: CN([C@@H]1CCc2c(CC(=O)O)c3cc(S(C)(=O)=O)ccc3n2C1)S(=O)(=O)c1ccc(F)cc1
Observed: cell-free assay
Technique: competition with immobilised ligand
Concentration: 1 µM
For Tyrosine-protein kinase Fer (FER, Homo sapiens, UniProt P16591): remaining binding read 100%.
The remaining binding was 93% (Serine/threonine-protein kinase ICK (CILK1, Homo sapiens, UniProt Q9UPZ9)).
It gave 82% for remaining binding (Tyrosine-protein kinase ABL1, phosphorylated (ABL1, Homo sapiens, UniProt P00519, Y253F)).
The remaining binding was 87% (Ephrin type-B receptor 2 (EPHB2, Homo sapiens, UniProt P29323)).
Cyclin-dependent kinase 14 (CDK14, Homo sapiens, UniProt O94921) — remaining binding: 100%.

Other studies, line by line
`CC(C)n1cnc(-c2ccc(F)cc2)c1-c1ncc(C(=O)Nc2ccc(N3CCN(C)CC3)cc2)[nH]1` — result for “blood urea increased”: 0% (IPF patients; 30 mg once daily, adverse event incidence).

For quick reference, copied from above (block 3):
`CN1CCN(c2ccc3nc(-c4c(N)c5c(F)cccc5[nH]c4=O)[nH]c3c2)CC1` gave a remaining activity of 6.34%.
With `O=Nc1c(-c2c(O)[nH]c3cc(Br)ccc23)[nH]c2ccccc12` the remaining activity was 2.99%.
With `CN(C)S(=O)(=O)c1ccc2c(c1)/C(=C/c1cc3c([nH]1)CCCC3)C(=O)N2` the remaining activity was 18.2%.
